Measurements collected from several papers.
Parts stem from different laboratories: compare values within a part only. Positions count from the first letter of the parent shown.

Block 1
Target: CCNB2, cyclin fold, Cln2 fusion (human)
Method: yeast growth competition, sequencing
Sample: yeast
Setting: weak parent motif
Reference: not given
Direction: higher = stronger binding
Starting sequence: RBL2 docking peptide (human); STTRRRLFVENDS
| Variant | normalised enrichment score |
| --- | --- |
| STTRRRLFEENDS [V9E] | 0.209 |
| STTRRRLFVTNDS [E10T] | 0.066 |
| STTRRRLFPENDS [V9P] | -0.265 |
| STTRFRLFVENDS [R5F] | -0.26 |
| STTRRRLFVEKDS [N11K] | 0.75 |

Block 2
Target: Ras GTPase-activating protein-binding protein 1, full length (G3BP1, Homo sapiens, UniProt Q13283)
Sequence of UniProt Q13283 (whole entry, looked up): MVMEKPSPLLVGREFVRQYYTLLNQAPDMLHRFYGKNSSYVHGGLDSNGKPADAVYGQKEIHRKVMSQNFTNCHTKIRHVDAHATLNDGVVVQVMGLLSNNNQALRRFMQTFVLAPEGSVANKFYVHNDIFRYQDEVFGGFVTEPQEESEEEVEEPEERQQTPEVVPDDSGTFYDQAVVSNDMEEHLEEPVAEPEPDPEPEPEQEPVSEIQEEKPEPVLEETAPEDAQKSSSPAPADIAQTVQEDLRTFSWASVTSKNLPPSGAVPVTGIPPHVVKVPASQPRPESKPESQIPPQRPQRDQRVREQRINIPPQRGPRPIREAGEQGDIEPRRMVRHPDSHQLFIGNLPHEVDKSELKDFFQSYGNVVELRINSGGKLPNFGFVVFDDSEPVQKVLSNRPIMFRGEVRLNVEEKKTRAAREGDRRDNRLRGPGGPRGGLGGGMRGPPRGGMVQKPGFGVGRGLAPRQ
Method: RNA Bind-n-Seq
Molecule type: RNA
Sample: in vitro
Tested at: 200 nM
Setting: whole 134-nt RNA, ends assumed
Together with: 150 mM LiCl
Reference: input library
Direction: higher = stronger binding
Each molecule: 7-deaza-guanosine replaces G
| Sequence | log2 enrichment |
| --- | --- |
| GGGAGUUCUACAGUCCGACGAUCCUCAAGUCCUGUGCUACACAUCGUAUGUACCGAAUCGGCCCGGGCCCGGCCCGGAAAGUAUUAUGUUACGCCGUUCGGAUCUGCACUUCCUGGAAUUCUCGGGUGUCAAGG | 0.956 |
| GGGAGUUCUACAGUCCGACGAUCCACAGACAACACGCACCCACACAGACACAGAGGGAAGGGGUAGGGAUGGGGACAGGGUGCACAGCAGGGCGGGGUAGGACCCCAGCCCCUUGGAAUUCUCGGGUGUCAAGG | -0.918 |
| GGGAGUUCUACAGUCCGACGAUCUGUGCUACACAUCGUAUGUACCGAAUCGGGGUUUUUUUGGGGUUUUUUUGGGUUUUUUUGGGAAAGUAUUAUGUUACGCCGUUCGGAUCUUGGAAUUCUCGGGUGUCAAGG | 1.61 |
| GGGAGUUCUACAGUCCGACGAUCUCAAGUCCUGUGCUACACAUCGUAUGUACCGAAUCGGUGGUUUUUUUGGUUUGGAAAGUAUUAUGUUACGCCGUUCGGAUCUGCACUUCCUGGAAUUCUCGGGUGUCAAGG | -0.565 |
| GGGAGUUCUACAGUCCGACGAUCCAAGUCCUGUGCUACACAUCGUAUGUACCGAAUCGGGAAAGGGAAAGGGUUUGGGAAAGUAUUAUGUUACGCCGUUCGGAUCUGCACUUCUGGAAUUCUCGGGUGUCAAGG | -0.946 |
| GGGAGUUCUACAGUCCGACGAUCCUGUGCUACACAUCGUAUGUACCGAAUCGGGGAAAAAAAGGGGAAAAAAAGGGGUUUGGGGAAAGUAUUAUGUUACGCCGUUCGGAUCUGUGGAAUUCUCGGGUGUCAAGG | -1.07 |
| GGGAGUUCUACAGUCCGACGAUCUCAAGUCCUGUGCUACACAUCGUAUGUACCGAAUCGGAAAAAGGUUUGGAAAGGAAAGUAUUAUGUUACGCCGUUCGGAUCUGCACUUCCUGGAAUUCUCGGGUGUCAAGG | -0.69 |

Block 3
Target: Sal-like protein 4, full length isoform B (SALL4, Homo sapiens, UniProt Q9UJQ4-2, residues 1-616)
Method: universal PBM
Molecule type: double-stranded DNA, one strand shown
Sample: in vitro
Tested at: not given
Setting: 8-mer, flanks averaged, mean of replicates
Direction: higher = stronger binding
| Sequence | E-score |
| --- | --- |
| ACTGGACT | 0.0269 |
| CTAGCGTA | -0.0147 |
| AGAGCTGA | -0.131 |
| CAGTCGAA | -0.16 |
| ATTGAAGA | 0.113 |
| CTGATTAA | 0.182 |
| AGCATGCG | -0.0344 |

Further values, each from its own experiment
| Molecule | target | test | test system | conditions | scale | quantity | result |
| --- | --- | --- | --- | --- | --- | --- | --- |
| PhoQ, residues 284 288 289 292 302 303 SCEHLI | PhoP, residues 12 14 15 18 19 LWHCS (Escherichia coli, UniProt P23836) | Sort-seq, measured: YFP reporter | E. coli | PhoQ-PhoP variant library, together with: 10 µM Mg2+ | reference: high Mg2+ state, higher = stronger signaling | fold induction | 13.4 |

Repeated from above (block 3):
| Sequence | E-score |
| --- | --- |
| ACTGGACT | 0.0269 |
| CTAGCGTA | -0.0147 |
